Measured values collected from several papers.
Each numbered part is a random draw from the data of one study; scales do not carry over between parts.
UniProt Q38832, sequence (whole entry, looked up): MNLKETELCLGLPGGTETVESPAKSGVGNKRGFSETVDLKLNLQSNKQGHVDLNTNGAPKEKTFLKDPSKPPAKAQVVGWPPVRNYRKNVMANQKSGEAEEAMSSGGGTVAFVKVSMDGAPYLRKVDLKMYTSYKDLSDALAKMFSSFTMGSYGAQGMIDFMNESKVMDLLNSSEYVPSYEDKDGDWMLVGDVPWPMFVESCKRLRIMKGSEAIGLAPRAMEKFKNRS
UniProt Q38826, sequence (whole entry, looked up): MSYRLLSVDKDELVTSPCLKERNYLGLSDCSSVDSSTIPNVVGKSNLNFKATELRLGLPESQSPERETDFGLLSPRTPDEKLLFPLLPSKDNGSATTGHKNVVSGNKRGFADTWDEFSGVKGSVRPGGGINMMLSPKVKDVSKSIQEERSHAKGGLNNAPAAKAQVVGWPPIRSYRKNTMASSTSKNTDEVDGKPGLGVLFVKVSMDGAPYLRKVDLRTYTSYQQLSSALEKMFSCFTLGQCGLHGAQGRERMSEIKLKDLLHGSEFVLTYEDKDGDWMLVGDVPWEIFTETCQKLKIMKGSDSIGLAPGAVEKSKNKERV
UniProt Q93WC4, sequence (whole entry, looked up): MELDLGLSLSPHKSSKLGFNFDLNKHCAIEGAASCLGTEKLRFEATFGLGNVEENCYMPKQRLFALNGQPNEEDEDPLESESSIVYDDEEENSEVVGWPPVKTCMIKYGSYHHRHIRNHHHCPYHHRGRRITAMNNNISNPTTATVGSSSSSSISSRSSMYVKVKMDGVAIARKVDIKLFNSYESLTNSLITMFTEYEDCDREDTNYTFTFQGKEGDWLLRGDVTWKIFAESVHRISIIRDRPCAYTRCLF
UniProt Q9XED8, sequence (whole entry, looked up): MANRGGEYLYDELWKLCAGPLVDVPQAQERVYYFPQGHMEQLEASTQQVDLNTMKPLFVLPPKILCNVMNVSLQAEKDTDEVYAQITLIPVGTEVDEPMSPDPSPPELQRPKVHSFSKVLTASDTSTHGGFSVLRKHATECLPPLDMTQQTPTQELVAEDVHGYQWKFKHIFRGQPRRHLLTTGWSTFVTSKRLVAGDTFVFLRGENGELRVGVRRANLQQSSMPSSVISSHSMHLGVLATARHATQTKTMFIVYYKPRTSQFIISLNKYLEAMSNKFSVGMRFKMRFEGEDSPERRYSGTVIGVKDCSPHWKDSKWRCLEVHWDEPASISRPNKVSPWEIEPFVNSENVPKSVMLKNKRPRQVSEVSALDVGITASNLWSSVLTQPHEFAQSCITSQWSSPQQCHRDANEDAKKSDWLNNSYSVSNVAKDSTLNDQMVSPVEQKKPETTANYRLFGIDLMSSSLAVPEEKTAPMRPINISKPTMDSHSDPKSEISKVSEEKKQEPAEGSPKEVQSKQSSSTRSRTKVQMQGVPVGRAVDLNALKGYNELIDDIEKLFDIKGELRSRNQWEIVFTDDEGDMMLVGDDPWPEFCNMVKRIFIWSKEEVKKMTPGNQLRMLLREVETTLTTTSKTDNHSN
UniProt Q9ZSY8, sequence (whole entry, looked up): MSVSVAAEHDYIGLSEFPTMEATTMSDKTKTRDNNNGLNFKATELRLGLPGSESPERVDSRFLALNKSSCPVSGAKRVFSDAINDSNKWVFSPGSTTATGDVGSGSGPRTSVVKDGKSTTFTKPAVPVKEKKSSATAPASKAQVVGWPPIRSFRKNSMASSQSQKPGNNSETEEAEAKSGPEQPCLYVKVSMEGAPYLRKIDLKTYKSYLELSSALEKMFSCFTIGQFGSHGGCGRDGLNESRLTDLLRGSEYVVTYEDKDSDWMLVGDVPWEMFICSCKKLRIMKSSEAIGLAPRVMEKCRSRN
UniProt Q9C8N7, sequence (whole entry, looked up): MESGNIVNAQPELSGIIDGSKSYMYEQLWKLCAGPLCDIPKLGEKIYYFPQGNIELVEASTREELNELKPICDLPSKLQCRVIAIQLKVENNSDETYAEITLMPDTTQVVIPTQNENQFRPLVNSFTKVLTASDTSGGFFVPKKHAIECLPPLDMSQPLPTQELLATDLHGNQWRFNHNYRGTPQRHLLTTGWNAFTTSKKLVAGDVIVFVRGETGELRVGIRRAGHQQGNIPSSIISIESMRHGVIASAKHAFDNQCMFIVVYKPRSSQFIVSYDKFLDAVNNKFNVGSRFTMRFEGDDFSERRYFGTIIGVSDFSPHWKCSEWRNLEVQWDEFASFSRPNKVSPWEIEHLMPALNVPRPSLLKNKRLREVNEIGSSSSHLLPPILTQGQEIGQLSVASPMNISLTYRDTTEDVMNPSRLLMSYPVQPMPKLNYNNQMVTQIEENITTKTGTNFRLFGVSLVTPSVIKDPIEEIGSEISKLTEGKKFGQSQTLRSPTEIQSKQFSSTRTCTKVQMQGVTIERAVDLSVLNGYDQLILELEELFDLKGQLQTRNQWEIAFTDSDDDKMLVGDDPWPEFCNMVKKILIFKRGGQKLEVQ
UniProt O24407, sequence (whole entry, looked up): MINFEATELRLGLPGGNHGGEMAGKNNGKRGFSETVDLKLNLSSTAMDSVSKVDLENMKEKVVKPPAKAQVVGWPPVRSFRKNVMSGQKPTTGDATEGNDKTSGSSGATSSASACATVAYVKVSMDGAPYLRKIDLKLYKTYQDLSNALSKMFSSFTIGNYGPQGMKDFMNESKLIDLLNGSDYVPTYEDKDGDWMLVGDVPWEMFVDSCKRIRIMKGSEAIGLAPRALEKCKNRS
UniProt Q93YR9, sequence (whole entry, looked up): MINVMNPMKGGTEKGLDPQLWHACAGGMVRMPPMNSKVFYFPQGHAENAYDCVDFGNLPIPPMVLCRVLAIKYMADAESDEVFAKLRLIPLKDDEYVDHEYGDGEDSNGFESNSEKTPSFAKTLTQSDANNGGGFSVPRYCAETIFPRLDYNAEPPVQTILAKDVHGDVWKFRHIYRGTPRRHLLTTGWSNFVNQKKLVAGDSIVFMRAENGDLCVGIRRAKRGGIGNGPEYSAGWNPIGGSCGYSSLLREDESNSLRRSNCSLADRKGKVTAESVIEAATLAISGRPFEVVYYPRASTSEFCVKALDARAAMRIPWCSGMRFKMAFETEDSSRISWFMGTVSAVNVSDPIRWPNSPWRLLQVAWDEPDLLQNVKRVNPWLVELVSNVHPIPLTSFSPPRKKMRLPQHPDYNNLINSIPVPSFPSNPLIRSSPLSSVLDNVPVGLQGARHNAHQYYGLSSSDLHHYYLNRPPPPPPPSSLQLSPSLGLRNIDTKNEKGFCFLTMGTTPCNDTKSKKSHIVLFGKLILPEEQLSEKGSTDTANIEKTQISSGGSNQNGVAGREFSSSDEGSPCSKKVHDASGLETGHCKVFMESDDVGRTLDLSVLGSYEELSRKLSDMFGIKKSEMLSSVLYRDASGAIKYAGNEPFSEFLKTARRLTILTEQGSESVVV

Set 1
Target: Myc proto-oncogene protein, bHLH-zipper, MAX partner unstated (MYC, Homo sapiens, UniProt P01106, residues 368-449)
UniProt P01106, sequence (368-449, looked up): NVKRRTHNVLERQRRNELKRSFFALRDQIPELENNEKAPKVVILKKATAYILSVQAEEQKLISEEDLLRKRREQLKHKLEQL
Method: protein-binding microarray
Molecule type: double-stranded DNA, one strand shown
Sample: in vitro
Concentration: not given
Setting: k-mer, scored over probes, only values ≥0.25
Reading: higher = stronger binding
Sequence	E-score
GTGGCCAC	0.404
GGACACGA	0.273
GTGTGGTA	0.257
AGGCGTGG	0.389
CACGCCAG	0.273
ACGTGACC	0.387
CACGGGGA	0.281
ATGCTCAC	0.301

Set 2
Substance: IAA7 (Arabidopsis thaliana, UniProt Q38825)
UniProt Q38825, sequence (whole entry, looked up): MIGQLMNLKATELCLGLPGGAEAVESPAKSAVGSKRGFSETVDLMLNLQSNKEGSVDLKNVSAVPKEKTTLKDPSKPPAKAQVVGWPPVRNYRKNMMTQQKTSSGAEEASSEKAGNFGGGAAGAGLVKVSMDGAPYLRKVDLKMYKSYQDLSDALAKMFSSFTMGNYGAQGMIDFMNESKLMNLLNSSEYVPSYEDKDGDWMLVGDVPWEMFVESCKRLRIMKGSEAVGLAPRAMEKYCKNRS
Method: two-hybrid
Reading: higher = firmer interaction
partner	conditions	scale	positive tests
IAA16 (Arabidopsis thaliana, UniProt O24407)	–	reference: out of 4 tests	1
ARF22 498-598 (Arabidopsis thaliana, UniProt Q9C8N7)	–	reference: out of 4 tests	3
IAA14 (Arabidopsis thaliana, UniProt Q38832)	–	reference: out of 4 tests	0
IAA8 (Arabidopsis thaliana, UniProt Q38826)	–	reference: out of 4 tests	3
IAA27 (Arabidopsis thaliana, UniProt Q9ZSY8)	–	reference: out of 4 tests	2
ARF9 519-638 (Arabidopsis thaliana, UniProt Q9XED8)	weak activation fusion	reference: out of 2 tests	0
IAA29 (Arabidopsis thaliana, UniProt Q93WC4)	–	reference: out of 4 tests	0
ARF16 570-670 (Arabidopsis thaliana, UniProt Q93YR9)	–	reference: out of 4 tests	0

Further values, each from its own experiment
Substance	tested on	test	test system	conditions	measurement	value
PYCR1 (Homo sapiens, UniProt P32322)	PYCR2 (Homo sapiens, UniProt Q96C36)	cross-linking MS	–	hits only	interaction screen	cross-linked
EELRSLYNTV	HLA class I histocompatibility antigen, A alpha chain, allele A*26:03 (Homo sapiens, UniProt P04439)	peptide-MHC binding	peptide	concentration not given	binding	inactive
NONO (Homo sapiens, UniProt Q15233)	PSPC1 (Homo sapiens, UniProt Q8WXF1)	cross-linking MS	cell fractions	with: DSSO	cross-linked residues	K109 to K14
SNRPGP15 (Homo sapiens, UniProt A8MWD9)	SNRPE (Homo sapiens, UniProt P62304)	cross-linking MS	–	hits only	interaction screen	cross-linked
RSL1D1 (Homo sapiens, UniProt O76021)	SPTAN1 (Homo sapiens, UniProt Q13813)	cross-linking MS	cell fractions	with: DSSO	cross-linked residues	K235 to S1615

For quick reference, copied from above (set 2):
partner	conditions	scale	positive tests
ARF16 570-670 (Arabidopsis thaliana, UniProt Q93YR9)	–	reference: out of 4 tests	0
ARF9 519-638 (Arabidopsis thaliana, UniProt Q9XED8)	weak activation fusion	reference: out of 2 tests	0
